Experimental data of several laboratories.
Protocols differ between the studies behind these lines. “And” joins repeats or separate records; there may be more than shown.
Target: Serine/threonine-protein kinase PAK 5 (PAK5, Homo sapiens, UniProt Q9P286)
Chain of UniProt Q9P286 (whole entry, looked up): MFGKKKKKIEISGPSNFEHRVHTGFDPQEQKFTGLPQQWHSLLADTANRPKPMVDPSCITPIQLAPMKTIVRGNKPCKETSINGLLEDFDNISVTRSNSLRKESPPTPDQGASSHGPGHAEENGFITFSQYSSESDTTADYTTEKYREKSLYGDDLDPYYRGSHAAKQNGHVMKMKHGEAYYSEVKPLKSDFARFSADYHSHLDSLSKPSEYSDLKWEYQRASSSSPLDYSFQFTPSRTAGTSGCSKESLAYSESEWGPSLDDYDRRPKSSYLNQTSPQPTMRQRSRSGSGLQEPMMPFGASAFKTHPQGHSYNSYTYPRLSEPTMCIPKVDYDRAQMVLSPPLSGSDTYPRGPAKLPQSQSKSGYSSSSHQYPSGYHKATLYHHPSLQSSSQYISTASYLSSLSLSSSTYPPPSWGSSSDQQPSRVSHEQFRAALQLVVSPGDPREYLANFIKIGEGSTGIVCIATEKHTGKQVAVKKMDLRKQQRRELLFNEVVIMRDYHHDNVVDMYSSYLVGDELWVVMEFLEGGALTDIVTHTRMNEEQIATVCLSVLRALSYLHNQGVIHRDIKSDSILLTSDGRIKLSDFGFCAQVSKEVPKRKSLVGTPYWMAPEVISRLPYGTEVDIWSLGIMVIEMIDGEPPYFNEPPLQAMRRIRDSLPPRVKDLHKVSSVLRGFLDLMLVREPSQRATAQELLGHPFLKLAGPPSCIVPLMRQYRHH

COCC12C(=O)NC3C4(C(OC)CC1O)C1CC5(O)C(OC)C(O)C(OC(C)=O)(C1C5OC(=O)c1ccccc1)C3(O)C(OC)C24 (stereo not drawn) — remaining activity (kinase activity, inhibitor, ProQinase kinase profiling; 25 µM; reference: control): 94% and 102%
Cc1ccc(C)c(-c2ccc3nc(NC(=O)C4CCCCC4)nn3c2)c1 — remaining activity (enzyme activity, Dundee kinase panel; 10 µM): 68%
CNC(=O)C[C@H](Cc1ccc(C#N)cc1)NC(=O)c1cc(-c2ccc(CN[C@H](C)c3ccc(C)cc3)o2)ccc1Cl — activity vs control (enzyme activity, inhibitor; 1 µM): 104%
O=C(Cc1ccc(OCc2ccccc2)cc1)NC1(C(=O)O)CCN(C(=O)c2ccc(-c3cccc(Cl)c3)cc2)CC1 — activity vs control (enzyme activity, inhibitor; 10 µM): 112%
COc1cc(Nc2nccc(-c3cnn4nc(OC)ccc34)n2)cc(C(F)(F)F)c1 — remaining binding (binding, competition with immobilised ligand; 1 µM): 100%
Cc1cccc(O[C@H]2CCC[C@@H](C(C)CNCc3ccncc3)C2)c1 (relative stereo) — inhibition (enzyme activity, inhibitor; 1 µM): -9%
CNC1C[S+]2CC[S+]3CC[S+](C1)[Ru-4]321([N]=C=S)[n]2c3ccc(OC)cc3c3c4c(c5cc(F)c[n+]1c5c32)C(=O)NC4=O (stereo not drawn) — remaining binding (KinomeScan; 0.1 µM; reference: untreated): 80%
NC(=O)[C@@H](O)C[C@H]1CCc2sc3ncnc(O[C@H]4CC[C@H](N5CCOCC5)CC4)c3c21 — inhibition (enzyme activity, inhibitor; 10 µM): 5%
Cc1c[nH]c2nccc(-c3ccc(C(=O)N[C@@H]4c5c(F)cc(C(F)F)cc5C[C@@H]4O)cn3)c12 — remaining binding (binding, competition with immobilised ligand; 3 µM): 14%
Nc1ncc2c(n1)-c1c([nH]c3ccc(C4=CCOCC4)cc13)CCC2 — remaining binding (binding, competition with immobilised ligand; 1 µM): 74%
Cc1cccc(-c2ccc3nc(NC(=O)C4CCCCC4)nn3c2)c1 — remaining activity (enzyme activity, Dundee kinase panel; 10 µM): 82%
C[C@H]1CN(C(=O)c2cn(-c3ccnc(N)n3)c3cc(C#CC4(O)CCCCC4)ccc23)CCN1 — inhibition (enzyme activity, inhibitor, FRET; 1 µM): 97%
Nc1nc(Nc2ccccc2)sc1C(=O)c1ccccc1 — remaining activity (enzyme activity, inhibitor; 10 µM): 38%
C=CC(=O)Nc1cccc(-c2cnc3[nH]cc(C(=O)NC(C)(C)C)c3n2)c1 — inhibition (enzyme activity, inhibitor; 0.1 µM): 12%
Cc1cnc2nc1Nc1cccc(c1)COC/C=C/COCc1cc(ccc1OCCN1CCOCC1)N2 — remaining binding (binding; 0.1 µM): 72%
COc1ccc(C(=O)/C=C/c2ccccc2-c2c[nH]c3ccc(C#N)cc23)c(O)c1 — inhibition (enzyme activity, inhibitor; 20 µM): 10%
CNC(=O)C1CCN(c2cc(C)c(F)cc2NC(=O)c2ccc(-c3cc(O)ccc3C)c(C)c2)CC1 — remaining binding (binding, competition with immobilised ligand; 1 µM): 100%
C=CC(=O)N1CCCC(n2c(=O)c3ncccc3n(Cc3ccc(Oc4ccccc4)cc3)c2=O)C1 (stereo not drawn) — remaining binding (cell-free assay, competition with immobilised ligand; 1 µM): 100%

Excerpt of the above:
CNC(=O)C1CCN(c2cc(C)c(F)cc2NC(=O)c2ccc(-c3cc(O)ccc3C)c(C)c2)CC1 — remaining binding (binding, competition with immobilised ligand; 1 µM): 100%
Cc1c[nH]c2nccc(-c3ccc(C(=O)N[C@@H]4c5c(F)cc(C(F)F)cc5C[C@@H]4O)cn3)c12 — remaining binding (binding, competition with immobilised ligand; 3 µM): 14%
C=CC(=O)Nc1cccc(-c2cnc3[nH]cc(C(=O)NC(C)(C)C)c3n2)c1 — inhibition (enzyme activity, inhibitor; 0.1 µM): 12%
